Published values from different studies.
Parts stem from different laboratories: compare values within a part only.
Chain of UniProt Q13233 (whole entry, looked up): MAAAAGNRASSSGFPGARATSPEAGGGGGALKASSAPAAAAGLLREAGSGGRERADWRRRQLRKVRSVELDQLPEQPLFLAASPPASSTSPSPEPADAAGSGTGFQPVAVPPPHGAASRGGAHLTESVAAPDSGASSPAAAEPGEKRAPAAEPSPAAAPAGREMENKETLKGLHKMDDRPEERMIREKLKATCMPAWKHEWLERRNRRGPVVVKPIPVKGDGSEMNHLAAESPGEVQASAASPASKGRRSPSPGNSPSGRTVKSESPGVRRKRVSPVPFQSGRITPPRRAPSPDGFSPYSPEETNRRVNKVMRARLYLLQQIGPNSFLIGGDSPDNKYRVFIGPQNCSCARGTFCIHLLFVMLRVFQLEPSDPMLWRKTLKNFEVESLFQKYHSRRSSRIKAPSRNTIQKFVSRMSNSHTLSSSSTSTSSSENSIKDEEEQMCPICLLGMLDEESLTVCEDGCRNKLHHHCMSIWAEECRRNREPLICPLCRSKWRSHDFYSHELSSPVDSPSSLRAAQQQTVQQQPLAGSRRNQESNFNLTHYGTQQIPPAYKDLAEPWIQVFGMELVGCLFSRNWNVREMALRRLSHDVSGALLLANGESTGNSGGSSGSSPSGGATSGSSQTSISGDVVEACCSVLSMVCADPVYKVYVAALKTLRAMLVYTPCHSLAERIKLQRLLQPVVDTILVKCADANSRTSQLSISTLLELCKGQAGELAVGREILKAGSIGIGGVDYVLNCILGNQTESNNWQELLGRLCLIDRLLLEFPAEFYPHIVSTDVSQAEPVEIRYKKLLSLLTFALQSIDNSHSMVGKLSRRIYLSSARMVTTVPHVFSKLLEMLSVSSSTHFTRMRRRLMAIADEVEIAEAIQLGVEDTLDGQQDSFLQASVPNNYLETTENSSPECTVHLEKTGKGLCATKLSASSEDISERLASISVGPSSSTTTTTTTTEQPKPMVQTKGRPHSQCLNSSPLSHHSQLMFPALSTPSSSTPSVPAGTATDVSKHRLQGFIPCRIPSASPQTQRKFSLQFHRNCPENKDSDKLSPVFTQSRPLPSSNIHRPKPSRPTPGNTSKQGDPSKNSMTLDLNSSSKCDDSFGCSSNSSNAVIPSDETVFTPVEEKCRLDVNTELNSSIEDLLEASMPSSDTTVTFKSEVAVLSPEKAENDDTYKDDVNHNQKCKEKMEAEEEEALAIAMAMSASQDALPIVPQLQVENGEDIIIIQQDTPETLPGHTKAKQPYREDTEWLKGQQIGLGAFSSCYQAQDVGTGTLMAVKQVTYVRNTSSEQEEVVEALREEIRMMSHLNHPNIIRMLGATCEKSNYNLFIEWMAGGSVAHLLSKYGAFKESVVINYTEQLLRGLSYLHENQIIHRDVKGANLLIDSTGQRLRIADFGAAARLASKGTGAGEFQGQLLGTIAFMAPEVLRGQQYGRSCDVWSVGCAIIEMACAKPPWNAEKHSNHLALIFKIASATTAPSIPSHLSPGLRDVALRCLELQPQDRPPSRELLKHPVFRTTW
Chain of UniProt P33981 (whole entry, looked up): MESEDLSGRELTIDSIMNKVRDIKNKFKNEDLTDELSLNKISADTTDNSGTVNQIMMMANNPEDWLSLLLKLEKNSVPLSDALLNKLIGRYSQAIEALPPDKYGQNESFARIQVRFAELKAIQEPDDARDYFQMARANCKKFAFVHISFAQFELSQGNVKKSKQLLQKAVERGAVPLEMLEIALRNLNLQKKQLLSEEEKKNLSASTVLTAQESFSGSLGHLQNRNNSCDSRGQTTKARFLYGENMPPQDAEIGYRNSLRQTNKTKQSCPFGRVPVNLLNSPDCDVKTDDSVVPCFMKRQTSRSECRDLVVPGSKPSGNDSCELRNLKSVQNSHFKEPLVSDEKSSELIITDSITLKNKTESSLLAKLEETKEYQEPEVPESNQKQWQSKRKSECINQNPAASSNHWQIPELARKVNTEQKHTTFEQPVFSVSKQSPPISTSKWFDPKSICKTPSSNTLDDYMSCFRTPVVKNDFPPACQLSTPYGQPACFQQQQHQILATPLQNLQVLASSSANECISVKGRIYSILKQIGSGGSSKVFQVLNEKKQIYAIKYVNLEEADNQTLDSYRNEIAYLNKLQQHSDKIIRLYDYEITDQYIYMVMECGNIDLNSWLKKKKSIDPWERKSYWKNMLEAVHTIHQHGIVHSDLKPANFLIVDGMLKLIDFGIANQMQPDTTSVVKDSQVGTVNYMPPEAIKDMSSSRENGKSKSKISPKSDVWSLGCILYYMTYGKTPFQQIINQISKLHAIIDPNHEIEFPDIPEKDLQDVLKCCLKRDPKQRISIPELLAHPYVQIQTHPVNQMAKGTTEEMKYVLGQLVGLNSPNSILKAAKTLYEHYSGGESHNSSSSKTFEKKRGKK

Block 1 — technique: RNA Bind-n-Seq; molecule type: RNA; medium: in vitro; tested at: 20 nM; setting: 6-mer, flanks averaged, single round; together with: 150 mM LiCl; relative to: input library; direction: higher = stronger binding
Target: TAR DNA-binding protein 43, full length, His tag (TARDBP, Homo sapiens, UniProt Q13148, residues 1-414)
| Oligonucleotide | 6-mer enrichment (R) |
| --- | --- |
| UUCAAC | 0.836 |
| AGUCUU | 0.88 |
| UCGAAG | 0.856 |
| UAGUUU | 1.12 |
| ACUUUC | 0.891 |
| CCAAAG | 0.828 |
| UGUAAA | 0.959 |
| AGGAAA | 0.844 |

Block 2 — technique: universal PBM; molecule type: double-stranded DNA, one strand shown; medium: in vitro; tested at: 600 nM; direction: higher = stronger binding
Target: Sal-like protein 4, full length isoform A (SALL4, Homo sapiens, UniProt Q9UJQ4, residues 1-1053)
Chain of UniProt Q9UJQ4 (whole entry, looked up): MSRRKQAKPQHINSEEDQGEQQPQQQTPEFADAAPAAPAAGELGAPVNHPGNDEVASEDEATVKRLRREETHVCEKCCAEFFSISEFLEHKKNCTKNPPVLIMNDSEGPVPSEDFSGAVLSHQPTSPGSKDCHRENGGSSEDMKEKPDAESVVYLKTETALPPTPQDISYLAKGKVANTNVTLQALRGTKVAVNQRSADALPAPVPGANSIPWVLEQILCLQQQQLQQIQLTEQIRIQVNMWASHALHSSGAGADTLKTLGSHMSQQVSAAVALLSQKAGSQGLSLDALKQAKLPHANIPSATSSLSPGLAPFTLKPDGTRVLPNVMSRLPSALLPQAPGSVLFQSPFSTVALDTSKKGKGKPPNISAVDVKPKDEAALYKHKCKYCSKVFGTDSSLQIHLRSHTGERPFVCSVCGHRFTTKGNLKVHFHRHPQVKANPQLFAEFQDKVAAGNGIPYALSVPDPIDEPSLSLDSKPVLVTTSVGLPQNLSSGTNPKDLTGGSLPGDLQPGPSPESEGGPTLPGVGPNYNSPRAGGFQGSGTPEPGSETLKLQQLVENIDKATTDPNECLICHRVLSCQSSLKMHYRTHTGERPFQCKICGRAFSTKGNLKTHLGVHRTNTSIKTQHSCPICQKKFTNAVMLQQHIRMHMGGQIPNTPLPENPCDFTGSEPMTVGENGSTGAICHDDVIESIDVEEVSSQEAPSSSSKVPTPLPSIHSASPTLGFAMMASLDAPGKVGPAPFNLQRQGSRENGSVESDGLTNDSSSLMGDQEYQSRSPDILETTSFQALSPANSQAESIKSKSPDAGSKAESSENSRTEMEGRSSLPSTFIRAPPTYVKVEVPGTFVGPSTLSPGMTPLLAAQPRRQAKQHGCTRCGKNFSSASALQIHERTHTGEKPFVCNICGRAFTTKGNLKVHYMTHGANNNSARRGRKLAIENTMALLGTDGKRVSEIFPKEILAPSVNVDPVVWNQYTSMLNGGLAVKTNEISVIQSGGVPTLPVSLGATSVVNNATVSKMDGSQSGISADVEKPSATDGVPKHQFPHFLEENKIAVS
Setting: 8-mer, flanks averaged, mean of replicates
| Oligonucleotide | E-score |
| --- | --- |
| GGATGGTA | 0.134 |
| ATGACATA | 0.3 |
| CGGAGCCA | -0.369 |
| GCGACGGA | -0.284 |
| CACGCCAC | -0.217 |
| AAGGCGAT | -0.00798 |
| CGGTAACG | -0.14 |
| CTGACACC | -0.0605 |

Block 3 — read-out: cell-free assay; technique: competition with immobilised ligand; tested at: 1 µM
SMILES: Cc1nc(Cc2cccc(C(F)(F)F)c2)sc1-c1ccc(C(N)=O)nc1
| target | remaining binding [%] |
| --- | --- |
| Dual specificity protein kinase TTK (TTK, Homo sapiens, UniProt P33981) | 82 |
| Dual specificity tyrosine-phosphorylation-regulated kinase 1B (DYRK1B, Homo sapiens, UniProt Q9Y463) | 100 |
| Mitogen-activated protein kinase kinase kinase 1 (MAP3K1, Homo sapiens, UniProt Q13233) | 100 |

Single results of other studies
| Structure (SMILES) | system | measurement | value |
| --- | --- | --- | --- |
| CCC[C@@H]1NC(=O)CSC[C@@H](C(=O)OCC)N(C)C(=O)[C@H](CC(C)C)NC(=O)[C@@H](C)N(C)C(=O)[C@H](CC(C)C)NC(=O)[C@H](C)N(C)C(=O)[C@H]2CCCN2C(=O)[C@H](CC(C)C)NC(=O)CN(CCC)C1=O | hydrocarbon/water | logD | 1.44 |

Excerpt of the above (block 1):
| Oligonucleotide | 6-mer enrichment (R) |
| --- | --- |
| UCGAAG | 0.856 |
| UAGUUU | 1.12 |
